Measurements of several laboratories.
Each line is one published result; not all experiments were run side by side. No end group written: not given here.

Molecule | cell line | assay | system | setting | how to read | inhibition [%]
CC(C)Oc1ccc(S(=O)(=O)c2ccc(Oc3cc(OCC(N)=O)c(C(=O)C(Cl)Cl)cc3[N+](=O)[O-])cc2)cc1 | NCI-H1650 | cell growth or viability, MTT | – | 2.5 µM | – | > 95
O=C(Nc1ccc(OS(=O)(=O)c2ccc(OC(F)(F)F)cc2)cc1)c1ccccc1 | HeLa | cell growth or viability, MTT | – | 100 µM, 24 h | – | 49.7
COc1cc2ncnc(Nc3ccc(Cl)cc3F)c2cc1OC | A549 EGFR reporter cells | EGFR-induced granule formation | – | 10 µM, together with: 500 nM EGF | negative means activation | 97
CCC(C)Oc1nc(N)nc(N)c1C#N (stereo not drawn) | HT-29 | cell growth or viability, SRB | – | 100 µM, 72 h | – | 30
C/C(=N\N=C1/NC(=O)/C(=C\c2ccc(F)cc2)S1)c1ccccn1 | MCF7 | cell growth or viability, SRB | – | 100 µg/mL, 48 h | – | 66.2
GIINTLQKYYCRVRGGRCAVLSCLPKEEQIGKCSTRGRKCCRRKK (human beta-defensin 3; not fully specified; ends and bridges not checked; sequence looked up) | LAD2 | degranulation, agonist | peptide | 100 nM, together with: Pseudomonas aeruginosa LPS 10 µg/mL, 5 min preincubation | – | ~50
C/C(=N\N=C1/NC(=O)C(C)S1)c1ccccn1 (stereo not drawn) | MCF7 | cell growth, SRB | – | 100 µg/mL, 48 h | – | > 70
O=C(Nc1ccc(OS(=O)(=O)Cc2ccccc2)cc1)c1ccccc1 | HeLa | cell growth or viability, MTT | – | 100 µM, 24 h | – | > 50
CCOc1ccccc1-c1cc(-c2cccc(Br)c2)nc2ncnc(N)c12 | HT-29 | cell growth or viability | – | 50 µM | – | 86.1
CCCc1ccc(S(=O)(=O)Oc2ccc(NC(=O)c3ccc(C)cc3)cc2)cc1 | HeLa | cell growth or viability, MTT | – | 100 µM, 24 h | – | 49.2
CCN(c1nc(N)c(C(=O)N=C(N)N)nc1Cl)C(C)C | MDCK | nanoparticle endocytosis | – | 40 µM, 30 min | – | 20.9
C/C(=N\N=c1/[nH]c(C)cs1)c1ccccn1 | MCF7 | cell growth or viability, SRB | – | 100 µg/mL, 48 h | – | 41.2
Cc1ccc(C(=O)Nc2ccc(OS(=O)(=O)Cc3ccccc3)cc2)cc1 | HeLa | cell growth or viability, MTT | – | 100 µM, 24 h | – | 38.5
COc1ccccc1-c1cc(-c2ccc(-c3ccc(Br)cc3)cc2)nc(N)c1C#N | HT-29 | cell growth or viability | – | 50 µM | – | 75
ANKHYF | washed human platelets | platelet aggregation | peptide, human | concentration not given, 1 min preincubation, together with: collagen 5 µg/mL | – | 0
